# Measured values pooled from the literature.
# A part holds a random share of what one study measured.

# Block 1
# Target: Glycogen synthase kinase-3 alpha (GSK3A, Homo sapiens, UniProt P49840)
# Chain of UniProt P49840 (whole entry, looked up): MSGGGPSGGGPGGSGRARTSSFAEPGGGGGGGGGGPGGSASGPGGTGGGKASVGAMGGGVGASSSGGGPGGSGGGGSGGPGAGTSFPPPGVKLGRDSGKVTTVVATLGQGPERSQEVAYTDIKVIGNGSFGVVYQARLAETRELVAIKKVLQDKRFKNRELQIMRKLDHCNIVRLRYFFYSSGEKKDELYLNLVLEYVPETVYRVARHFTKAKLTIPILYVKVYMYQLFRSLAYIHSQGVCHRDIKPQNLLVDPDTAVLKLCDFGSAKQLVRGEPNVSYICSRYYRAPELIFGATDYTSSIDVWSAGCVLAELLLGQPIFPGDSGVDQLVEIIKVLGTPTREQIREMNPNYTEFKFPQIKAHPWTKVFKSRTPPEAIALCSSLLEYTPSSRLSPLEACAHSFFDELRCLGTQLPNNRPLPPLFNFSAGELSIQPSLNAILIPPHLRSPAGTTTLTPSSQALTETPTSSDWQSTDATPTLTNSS
# Read-out: enzyme activity
# Action: inhibitor
# Concentration: 0.5 µM
# Reference: control
SMILES,remaining activity [%]
N#Cc1c(NC(=O)c2cccc3ccccc23)sc2c1CCCC2,97.2
c1ccc(-c2cnc(Nc3ccc(OCCN4CCCC4)cc3)s2)cc1,99.2
CN(C)C[C@H]1CCn2c(c(C3=C(c4cn(C)c5ccccc45)C(=O)NC3=O)c3ccccc32)C1,14.2
C[C@@H]1CCN(C(=O)CC#N)C[C@@H]1N(C)c1ncnc2[nH]ccc12,103
Ic1cccc(CSc2nnc(-c3ccncc3)o2)c1,42.7
CCN(CC)C(=O)c1ccc(Nc2nc(OCC3CCCCC3)c3[nH]cnc3n2)cc1,80.3
O=C1C(Cl)=C(N2C(=O)CCC2=O)C(=O)c2ccccc21,99.8

# Block 2
# Species: human
# Matrix: microsomes or S9
# Concentration: 2 µM
# Time: 0.5 h
Structure (SMILES),remaining compound [%]
CCc1cc2c(nc(-c3ccccc3)n3nnnc23)s1,92.9
COc1ccc(C2c3cccn3-c3sc4c(c3CN2C(=O)NCc2ccc(F)cc2)CCCC4)cc1 (centres unmarked),3.82
CC(CNc1nc(-c2ccccc2)nc2nc(-c3ccccc3)oc12)N1CCN(C)CC1 (centres unmarked),77.2
CN(C)C1CCN(c2ncnn3c(Br)ccc23)CC1,94.5
COCCOc1cc(=O)n2c(c1C(=O)NCc1ccc(OC)cc1)CCOCC2,92.8
O=C(c1ccc(F)cc1)c1c2nc[nH]c(=O)c2c2ccccn12,43.2

# Block 3
# Cell line: Huh-7
# Concentration: 10 µM
# Time: 24 h
Structure (SMILES),viability
CC(=O)OCC(=O)[C@@]1(O)CC[C@H]2[C@@H]3CCC4=CC(=O)CC[C@]4(C)[C@H]3C(=O)C[C@@]21C,92%
CCN(CC)C(=O)c1cccc(C)c1,98.3%
C[C@H]1C[C@H]2[C@@H]3CCC4=CC(=O)C=C[C@]4(C)[C@@]3(F)[C@@H](O)C[C@]2(C)[C@@]1(O)C(=O)CO,101%
CN1CC(=O)N2[C@H](c3ccc4c(c3)OCO4)c3[nH]c4ccccc4c3C[C@@H]2C1=O,96.7%
CNC[C@H](O)c1ccc(O)c(O)c1,101%
C#C[C@]1(O)CC[C@H]2[C@@H]3CCC4=C(CCC(=O)C4)[C@H]3CC[C@@]21C,79.5%

# Further values, each from its own experiment
Compound,cell line,assay,conditions,endpoint,value
Cn1cncc1[C@@](O)(COc1ccc(C#N)cc1-c1ccc(OC(F)(F)F)cc1)c1ccc(C#N)cc1,HEK293T,high-content imaging,"10 µM, 24 h",cells with altered tubulin phenotype,95%
